Published values collected from several papers.
A part holds a random share of what one study measured.

Block 1
Target: Interferon regulatory factor 5, full length, phosphomimetic (IRF5, Homo sapiens, UniProt Q13568-2, residues 1-514, S451D/S453D/S456D/S462D)
Technique: protein-binding microarray
Form: double-stranded DNA, one strand shown
Medium: in vitro
Concentration: 940 nM top
Setting: 60-bp whole probe
Added: salmon DNA 0.4 mg/ml
Baseline: random background probes
Reading: higher = stronger binding
Constant ends, left off below: GCCTAGCAC … GTCTTGATTCGCTTGACGCTGCTG
| Sequence | fitted relative affinity |
| --- | --- |
| GAAGAACTGAGTTTCGAGACGTGCTAG | 3.28 z-score |
| CCCTAGTTGTGTCTTGCCATGTGCTAG | 0.371 z-score |
| CGACATTTTTATTTGCCTTAGTGCTAG | 0.695 z-score |
| GACGGTCTCCTTCTCCGGACGTGCTAG | 0.934 z-score |
| TCAATACTCTTCCATGGAACTGTGCTA | 0.468 z-score |
| GACGGTTTCCTTTCCCGGACGTGCTAG | 2.78 z-score |
| TCACTCTGCTCTTTTCAAACTGTGCTA | 1.28 z-score |
| GACGAATTCGGGTTTCGAGACGTGCTA | 2.1 z-score |

Block 2
Target: Replicase polyprotein 1ab, main protease (rep, Severe acute respiratory syndrome coronavirus 2, UniProt P0DTD1)
Effect on: enzyme activity
Mode: inhibitor
Concentration: 20 µM
Setting: primary screen
| SMILES | inhibition [%] |
| --- | --- |
| O=[N+]([O-])c1ccc2c(c1)S(=O)(=O)C=C2 | 38 |
| CC1=C(O)C(=O)[C@@H]2O[C@@H]2C1=O | 65.4 |
| CN1CCN2c3c(cccc31)[C@@H]1CN(CCCC(=O)c3ccc(F)cc3)CC[C@@H]12 | 36 |

Block 3
Cell line: HEK-293T
Effect on: pseudovirus infection
Organism: VSV pseudotyped with SARS-CoV-2 spike
Concentration: 10 µM
Time: 16 h
Baseline: vehicle-treated
| SMILES | GFP-positive cells [%] |
| --- | --- |
| C[C@H](CCC(=O)NCCS(=O)(=O)O)[C@H]1CC[C@H]2[C@@H]3[C@@H](O)C[C@@H]4C[C@H](O)CC[C@]4(C)[C@H]3CC[C@]12C | 86.1 |
| Cc1cc(/C=C/C#N)cc(C)c1Nc1ccnc(Nc2ccc(C#N)cc2)n1 | 0.13 |
| CC(=O)/N=c1/sc(S(N)(=O)=O)nn1C | 104 |
| C[C@H](Cn1cnc2c(N)ncnc21)OCP(=O)(O)O | 93.2 |

Block 4
Target: Phosphate system positive regulatory protein PHO4, full length, GST-tagged (PHO4, Saccharomyces cerevisiae, UniProt P07270, residues 1-312)
Technique: competition protein-binding microarray
Form: double-stranded DNA, one strand shown
Medium: in vitro
Concentration: 2 µM
Setting: whole 60-bp probe, lowest competitor level
Added: Cbf1 competitor, 0.05 µM
Reading: higher = stronger binding
Constant ends, left off below: … GTCTTGATTCGCTTGACGCTGCTG
Construct (chain): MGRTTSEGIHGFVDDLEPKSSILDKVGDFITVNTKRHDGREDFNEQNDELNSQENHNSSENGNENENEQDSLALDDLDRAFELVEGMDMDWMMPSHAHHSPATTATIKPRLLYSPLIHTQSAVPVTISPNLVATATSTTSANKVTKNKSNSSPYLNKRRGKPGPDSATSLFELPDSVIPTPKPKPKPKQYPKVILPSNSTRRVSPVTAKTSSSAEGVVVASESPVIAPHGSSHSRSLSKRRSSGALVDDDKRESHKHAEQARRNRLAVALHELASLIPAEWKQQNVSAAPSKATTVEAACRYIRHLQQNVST
| Sequence | fluorescence intensity |
| --- | --- |
| CGGGGTTAAGTTTTTCACGTGCCATGCTTGCAGCAG | 13700 a.u. |
| AGAATCAAAGCTCACCACGTCATGGTTGCGAAAGCC | 5960 a.u. |
| CATACCCAACCTTGGGCAGTGGGTGAAGATATTTGT | 3390 a.u. |
| CTTTCCCGATCTTGATTTGTGGGTGTAGCACATTTG | 4450 a.u. |
| GACTCCATCTGGGCACAACTGGGTTAGTGGTCAAGG | 4130 a.u. |
| GGGCTCACTTTTAGACGCGTGTTCCATCGGCGTTCG | 8490 a.u. |
| TCATGATAGACTTTGTGCGTGGACCCCAAGCCAAAG | 6290 a.u. |
| CCAAAACTGACAACCGGCGTGCGGATATGCGGAAGA | 7860 a.u. |

Block 5
Target: Replicase polyprotein 1ab, polymerase (rep, Severe acute respiratory syndrome coronavirus 2, UniProt P0DTD1)
Effect on: enzyme activity
Mode: inhibitor
Concentration: 20 µM
| SMILES | inhibition |
| --- | --- |
| O=C(C[S+]([O-])Cc1ccco1)NC/C=C\COc1cc(CN2CCCCC2)ccn1 (centres unmarked) | 0.14% |
| OC[C@H]1O[C@H](O[C@H]2O[C@H](CO)[C@@H](O)[C@H](O)[C@H]2O)[C@H](O)[C@@H](O)[C@@H]1O | -1.34% |
| CCCCC(CC)CNC(=N)NC(=N)NCCCCCCNC(=N)NC(=N)NCC(CC)CCCC (centres unmarked) | 14.6% |
| Nc1cc(C(F)(F)F)c(-c2nc(N3CCOCC3)nc(N3CCOCC3)n2)cn1 | 0.17% |
| O=C(O)CCCN1C(=O)c2cccc3cccc(c23)C1=O | 3.02% |
| COc1ccc(C2CNC(=O)C2)cc1OC1CCCC1 (centres unmarked) | -2.89% |
| Cn1c(=O)c2c(ncn2CC(=O)O)n(C)c1=O | -7.23% |
| CC[C@H](CO)Nc1nc(Nc2cccc(-c3ccccn3)c2)c2ncn(C(C)C)c2n1 | 4.85% |
| CCCCC1(C2CCCC2)Cc2cc(OCCCC(=O)O)c(Cl)c(Cl)c2C1=O (centres unmarked) | -6.95% |
| O=C(NCCCN1CCC2(CC1)OCc1ccccc12)[C@H]1CCCN1Cc1ccccc1 | -0.56% |
| Cc1cc(CC(=O)O)n(C)c1C(=O)c1ccc(Cl)cc1 | -2.08% |
| CN1CCc2cc3c(cc2[C@H]1[C@@H]1OC(=O)c2c1ccc1c2OCO1)OCO3 | 0.72% |
| Cc1c2oc3c(C)ccc(C(=O)N[C@@H]4C(=O)N[C@H](C(C)C)C(=O)N5CCC[C@H]5C(=O)N(C)CC(=O)N(C)[C@@H](C(C)C)C(=O)O[C@@H]4C)c3nc-2c(C(=O)N[C@@H]2C(=O)N[C@H](C(C)C)C(=O)N3CCC[C@H]3C(=O)N(C)CC(=O)N(C)[C@@H](C(C)C)C(=O)O[C@@H]2C)c(N)c1=O | 10.8% |
| NCC[C@H](O)C(=O)N[C@@H]1C[C@H](N)[C@@H](O[C@H]2O[C@H](CN)[C@@H](O)[C@H](O)[C@H]2O)[C@H](O)[C@H]1O[C@H]1O[C@H](CO)[C@@H](O)[C@H](N)[C@H]1O | -3.97% |
| Cc1cc(-n2c(=O)[nH]c(=O)n(C)c2=O)ccc1Oc1ccc(SC(F)(F)F)cc1 | -4.75% |
| Cc1ccc2nc(N)[nH]c(=O)c2c1Sc1ccncc1 | 5.21% |
| CCn1c(=O)[nH]c2cc(Cl)c(Cl)cc21 | -4.76% |
| Cc1ccc(C(=O)N(CCCN)[C@@H](c2nc3cc(Cl)ccc3c(=O)n2Cc2ccccc2)C(C)C)cc1 | 2.16% |
| NC(=O)C(c1ccccc1)(c1ccc(F)cc1)c1ccc(F)cc1 | -7.89% |
| O=C(Oc1ccc([N+](=O)[O-])cc1)N1CCC(C(O)(c2ccc3c(c2)OCO3)c2ccc3c(c2)OCO3)CC1 | -0.82% |
| N[C@@H](CCC(=O)O)C(=O)O | -1.5% |
